Measurements from different studies.
Parts stem from different laboratories: compare values within a part only.
Chain of UniProt Q13177 (whole entry, looked up): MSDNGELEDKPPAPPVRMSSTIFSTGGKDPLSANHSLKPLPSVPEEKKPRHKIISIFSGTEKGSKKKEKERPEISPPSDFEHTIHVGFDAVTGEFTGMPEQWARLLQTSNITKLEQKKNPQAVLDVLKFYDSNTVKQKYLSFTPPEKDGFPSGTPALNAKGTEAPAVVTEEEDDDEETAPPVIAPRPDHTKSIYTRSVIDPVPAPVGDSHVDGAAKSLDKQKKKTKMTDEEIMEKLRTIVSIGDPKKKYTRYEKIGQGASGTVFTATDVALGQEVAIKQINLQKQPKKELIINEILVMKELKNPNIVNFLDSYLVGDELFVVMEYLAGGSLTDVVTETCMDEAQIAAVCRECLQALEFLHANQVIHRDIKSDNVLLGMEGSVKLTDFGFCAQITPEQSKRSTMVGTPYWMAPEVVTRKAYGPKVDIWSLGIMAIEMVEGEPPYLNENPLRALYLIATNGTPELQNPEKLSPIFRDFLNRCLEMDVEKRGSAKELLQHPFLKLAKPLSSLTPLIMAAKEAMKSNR
Chain of UniProt P35590 (whole entry, looked up): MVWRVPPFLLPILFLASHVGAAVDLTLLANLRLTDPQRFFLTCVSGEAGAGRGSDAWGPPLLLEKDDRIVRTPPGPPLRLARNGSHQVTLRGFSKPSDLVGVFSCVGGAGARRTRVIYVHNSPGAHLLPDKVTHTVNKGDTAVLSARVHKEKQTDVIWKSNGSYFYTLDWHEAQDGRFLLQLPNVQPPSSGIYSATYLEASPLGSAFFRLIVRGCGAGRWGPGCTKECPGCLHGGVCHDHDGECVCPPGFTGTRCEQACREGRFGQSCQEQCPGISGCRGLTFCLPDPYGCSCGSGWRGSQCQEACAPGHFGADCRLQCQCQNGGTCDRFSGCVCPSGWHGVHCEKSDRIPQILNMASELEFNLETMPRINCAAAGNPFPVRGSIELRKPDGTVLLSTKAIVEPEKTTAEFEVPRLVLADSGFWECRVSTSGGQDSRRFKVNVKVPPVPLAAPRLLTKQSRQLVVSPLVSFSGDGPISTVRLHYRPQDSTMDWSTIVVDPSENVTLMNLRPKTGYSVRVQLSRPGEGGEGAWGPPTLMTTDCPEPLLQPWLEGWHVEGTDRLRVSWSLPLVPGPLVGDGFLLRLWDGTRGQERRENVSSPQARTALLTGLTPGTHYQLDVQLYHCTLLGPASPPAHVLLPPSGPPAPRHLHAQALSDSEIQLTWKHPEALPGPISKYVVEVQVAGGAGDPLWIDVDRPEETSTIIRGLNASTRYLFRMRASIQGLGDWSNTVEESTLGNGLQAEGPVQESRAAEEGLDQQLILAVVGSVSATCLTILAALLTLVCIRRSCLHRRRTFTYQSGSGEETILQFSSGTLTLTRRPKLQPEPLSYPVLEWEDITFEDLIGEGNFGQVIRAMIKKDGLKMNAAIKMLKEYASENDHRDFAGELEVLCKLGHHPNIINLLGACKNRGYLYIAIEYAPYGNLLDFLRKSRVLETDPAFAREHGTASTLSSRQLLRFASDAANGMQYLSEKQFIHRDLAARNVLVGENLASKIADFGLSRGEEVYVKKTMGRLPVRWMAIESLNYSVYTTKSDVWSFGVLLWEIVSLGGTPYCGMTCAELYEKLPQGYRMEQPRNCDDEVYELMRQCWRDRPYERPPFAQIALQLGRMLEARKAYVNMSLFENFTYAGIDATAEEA
Chain of UniProt O00141 (whole entry, looked up): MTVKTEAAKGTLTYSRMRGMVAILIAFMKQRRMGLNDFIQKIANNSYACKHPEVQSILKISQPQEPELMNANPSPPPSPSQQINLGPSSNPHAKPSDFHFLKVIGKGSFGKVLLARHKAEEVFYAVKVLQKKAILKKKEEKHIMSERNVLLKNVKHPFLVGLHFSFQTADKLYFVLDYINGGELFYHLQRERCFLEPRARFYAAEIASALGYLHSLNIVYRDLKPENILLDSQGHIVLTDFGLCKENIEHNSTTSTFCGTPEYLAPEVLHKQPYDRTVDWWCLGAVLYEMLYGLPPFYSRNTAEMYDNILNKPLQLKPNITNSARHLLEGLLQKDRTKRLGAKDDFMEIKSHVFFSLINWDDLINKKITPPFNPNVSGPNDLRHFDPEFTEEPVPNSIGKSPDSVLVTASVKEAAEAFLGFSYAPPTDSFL
Chain of UniProt Q9BYT3 (whole entry, looked up): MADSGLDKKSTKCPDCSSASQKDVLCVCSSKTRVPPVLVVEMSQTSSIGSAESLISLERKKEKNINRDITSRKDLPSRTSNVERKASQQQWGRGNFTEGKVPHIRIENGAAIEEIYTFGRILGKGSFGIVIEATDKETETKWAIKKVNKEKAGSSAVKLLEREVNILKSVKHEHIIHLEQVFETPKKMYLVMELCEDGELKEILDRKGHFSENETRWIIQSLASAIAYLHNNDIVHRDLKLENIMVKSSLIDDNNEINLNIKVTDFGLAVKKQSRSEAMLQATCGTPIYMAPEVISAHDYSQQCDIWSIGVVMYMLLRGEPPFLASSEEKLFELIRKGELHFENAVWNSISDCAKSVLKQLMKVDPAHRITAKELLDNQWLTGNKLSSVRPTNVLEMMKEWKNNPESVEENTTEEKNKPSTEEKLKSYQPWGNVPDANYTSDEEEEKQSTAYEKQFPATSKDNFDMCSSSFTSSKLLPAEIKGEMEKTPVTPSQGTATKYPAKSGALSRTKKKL
Chain of UniProt O75914 (whole entry, looked up): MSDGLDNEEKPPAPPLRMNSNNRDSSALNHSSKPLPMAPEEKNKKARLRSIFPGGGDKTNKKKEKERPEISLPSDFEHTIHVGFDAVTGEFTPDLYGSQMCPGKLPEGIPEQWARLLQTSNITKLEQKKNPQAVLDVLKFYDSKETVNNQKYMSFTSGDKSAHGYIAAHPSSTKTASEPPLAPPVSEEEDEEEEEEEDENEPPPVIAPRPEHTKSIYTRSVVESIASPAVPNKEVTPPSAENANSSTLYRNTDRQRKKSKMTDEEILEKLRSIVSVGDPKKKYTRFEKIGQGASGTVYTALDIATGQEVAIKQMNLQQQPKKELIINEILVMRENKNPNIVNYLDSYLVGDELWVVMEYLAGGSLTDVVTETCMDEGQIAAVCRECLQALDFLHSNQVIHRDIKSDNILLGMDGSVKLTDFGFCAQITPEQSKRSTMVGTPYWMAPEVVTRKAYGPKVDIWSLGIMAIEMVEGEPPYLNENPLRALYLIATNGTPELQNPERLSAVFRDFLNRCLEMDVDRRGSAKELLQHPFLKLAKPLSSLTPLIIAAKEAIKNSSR
Chain of UniProt Q9P1W9 (whole entry, looked up): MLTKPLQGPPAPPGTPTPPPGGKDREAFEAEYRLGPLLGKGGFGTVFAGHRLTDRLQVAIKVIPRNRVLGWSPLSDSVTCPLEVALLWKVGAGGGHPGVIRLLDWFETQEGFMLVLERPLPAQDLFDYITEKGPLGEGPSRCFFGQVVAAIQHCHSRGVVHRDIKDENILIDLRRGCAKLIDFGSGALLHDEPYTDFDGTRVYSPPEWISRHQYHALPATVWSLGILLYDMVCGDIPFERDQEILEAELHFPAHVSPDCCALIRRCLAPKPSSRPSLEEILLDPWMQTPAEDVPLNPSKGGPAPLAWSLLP
Chain of UniProt O95747 (whole entry, looked up): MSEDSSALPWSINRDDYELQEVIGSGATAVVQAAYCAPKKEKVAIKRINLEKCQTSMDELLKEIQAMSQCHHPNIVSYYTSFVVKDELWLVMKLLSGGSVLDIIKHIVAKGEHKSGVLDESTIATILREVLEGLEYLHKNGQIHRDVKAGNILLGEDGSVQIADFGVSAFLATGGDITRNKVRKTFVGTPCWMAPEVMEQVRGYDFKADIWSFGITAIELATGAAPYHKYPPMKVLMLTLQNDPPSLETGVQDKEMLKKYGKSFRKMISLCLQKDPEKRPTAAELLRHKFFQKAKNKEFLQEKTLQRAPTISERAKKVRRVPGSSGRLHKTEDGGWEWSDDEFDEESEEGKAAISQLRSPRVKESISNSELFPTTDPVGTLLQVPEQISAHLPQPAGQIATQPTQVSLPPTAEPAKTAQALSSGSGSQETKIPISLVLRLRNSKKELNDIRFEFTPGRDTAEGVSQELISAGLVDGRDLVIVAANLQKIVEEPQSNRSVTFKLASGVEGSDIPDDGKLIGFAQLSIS
Chain of UniProt P35626 (whole entry, looked up): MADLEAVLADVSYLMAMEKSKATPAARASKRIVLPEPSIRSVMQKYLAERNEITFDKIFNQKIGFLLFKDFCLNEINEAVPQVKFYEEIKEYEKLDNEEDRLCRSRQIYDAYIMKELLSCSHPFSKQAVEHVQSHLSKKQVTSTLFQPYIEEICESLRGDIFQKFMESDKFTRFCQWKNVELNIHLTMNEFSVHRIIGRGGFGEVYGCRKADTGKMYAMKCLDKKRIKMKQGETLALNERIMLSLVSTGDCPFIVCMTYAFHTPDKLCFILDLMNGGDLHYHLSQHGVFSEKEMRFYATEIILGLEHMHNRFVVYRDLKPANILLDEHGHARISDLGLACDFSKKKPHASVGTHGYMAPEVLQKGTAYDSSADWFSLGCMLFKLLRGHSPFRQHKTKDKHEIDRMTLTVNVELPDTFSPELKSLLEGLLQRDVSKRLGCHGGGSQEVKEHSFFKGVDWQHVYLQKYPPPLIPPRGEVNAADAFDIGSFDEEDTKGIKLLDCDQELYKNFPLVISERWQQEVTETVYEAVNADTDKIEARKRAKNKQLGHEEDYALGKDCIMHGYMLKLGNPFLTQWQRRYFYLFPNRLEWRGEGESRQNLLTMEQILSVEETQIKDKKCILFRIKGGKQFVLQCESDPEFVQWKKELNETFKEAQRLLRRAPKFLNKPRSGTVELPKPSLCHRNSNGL

Sample 1 — read-out: enzyme activity; mode: inhibitor; concentration: 0.5 µM; reference: control
SMILES: Cc1cc(Nc2cc(N3CCN(C)CC3)nc(Sc3ccc(NC(=O)C4CC4)cc3)n2)[nH]n1
target	remaining activity [%]
Tyrosine-protein kinase CSK (CSK, Homo sapiens, UniProt P41240)	78.1
Serine/threonine-protein kinase PAK 2 (PAK2, Homo sapiens, UniProt Q13177)	93.1
Ribosomal protein S6 kinase alpha-1 (RPS6KA1, Homo sapiens, UniProt Q15418)	103
Serine/threonine-protein kinase pim-2 (PIM2, Homo sapiens, UniProt Q9P1W9)	97.3
Serine/threonine-protein kinase Sgk1 (SGK1, Homo sapiens, UniProt O00141)	116
Glycogen synthase kinase-3 alpha (GSK3A, Homo sapiens, UniProt P49840)	101
Protein kinase C epsilon type (PRKCE, Homo sapiens, UniProt Q02156)	97.8
SRSF protein kinase 3 (SRPK3, Homo sapiens, UniProt Q9UPE1)	105
G protein-coupled receptor kinase 6 (GRK6, Homo sapiens, UniProt P43250)	104

Sample 2 — read-out: enzyme activity; concentration: 5 µM; reference: untreated control
SMILES: O=C(Nc1cnn(-c2csc(C(=O)NC3COC3)c2)c1)Nc1c(F)cccc1Cl
target	remaining activity
TGF-beta receptor type-1 (TGFBR1, Homo sapiens, UniProt P36897)	97.3%
Beta-adrenergic receptor kinase 1 (GRK2, Homo sapiens, UniProt P25098)	104%
Serine/threonine-protein kinase PLK3 (PLK3, Homo sapiens, UniProt Q9H4B4)	95.9%
Cyclin-dependent kinase 16, with cyclin Y (CDK16, Homo sapiens, UniProt Q00536)	100%
Serine/threonine-protein kinase 38 (STK38, Homo sapiens, UniProt Q15208)	95.3%

Sample 3 — cell line: mouse MPNST tumor cells; technique: high-content immunofluorescence imaging; refers to: nuclear SOX9; concentration: 10 µM; time: 12 h; notes: mean of 2 replicates; reference: DMSO control; reading: higher = more nuclear SOX9
Structure (SMILES)	nuclear SOX9 intensity
NS(=O)(=O)c1nn2cc(-c3ccccc3)nc2s1	82.7 % of DMSO
C[C@H](NC[C@H](O)CP(=O)(O)CC1CCCCC1)c1ccc(Cl)c(Cl)c1	96.9 % of DMSO
CCCOc1cc(N)ccc1C(=O)OCCN(CC)CC	96.2 % of DMSO
Cc1cccc(NC(=O)CN2CCC(c3ccccn3)CC2)c1	97 % of DMSO
O=C(Nc1cccc2cccnc12)c1ccc(N2C(=O)[C@@H]3[C@H](C2=O)[C@@H]2C=C[C@H]3C2)cc1	85.2 % of DMSO
CCc1ccc(/C=C2/SC(=S)NC2=O)cc1	100 % of DMSO
N=C(N)NCCN1CCCCCCC1	99.5 % of DMSO
COc1cc(C(=S)N2CCOCC2)cc(OC)c1OC	111 % of DMSO
O=C(Nc1ccc(C(O)(C(F)(F)F)C(F)(F)F)cc1)c1ccccc1Cl	117 % of DMSO

Sample 4 — read-out: cell-free assay; technique: competition with immobilised ligand; concentration: 1 µM
Structure (SMILES): CN(C)C(=O)Cn1cc(-c2nc(C3(c4ccc(-c5cnc(N)nc5)cc4)CC3)no2)cn1
target	remaining binding
Serine/threonine-protein kinase PAK 3 (PAK3, Homo sapiens, UniProt O75914)	82%
Serine/threonine-protein kinase pim-3 (PIM3, Homo sapiens, UniProt Q86V86)	100%
Serine/threonine-protein kinase OSR1 (OXSR1, Homo sapiens, UniProt O95747)	82%
Mitogen-activated protein kinase 15 (MAPK15, Homo sapiens, UniProt Q8TD08)	96%
G protein-coupled receptor kinase 3 (GRK3, Homo sapiens, UniProt P35626)	69%
Tyrosine-protein kinase receptor Tie-1 (TIE1, Homo sapiens, UniProt P35590)	98%
Serine/threonine-protein kinase WNK2 (WNK2, Homo sapiens, UniProt Q9Y3S1)	67%
Tyrosine-protein kinase BTK (BTK, Homo sapiens, UniProt Q06187)	82%
Serine/threonine-protein kinase RIO2 (RIOK2, Homo sapiens, UniProt Q9BVS4)	76%
Tyrosine-protein kinase Fyn (FYN, Homo sapiens, UniProt P06241)	100%
Phosphatidylinositol 4,5-bisphosphate 3-kinase catalytic subunit alpha isoform (PIK3CA, Homo sapiens, UniProt P42336)	76%
Calcium/calmodulin-dependent protein kinase kinase 1 (CAMKK1, Homo sapiens, UniProt Q8N5S9)	100%
Serine/threonine-protein kinase 33 (STK33, Homo sapiens, UniProt Q9BYT3)	99%
Testis-specific serine/threonine-protein kinase 3 (TSSK3, Homo sapiens, UniProt Q96PN8)	97%
Serine/threonine-protein kinase D1 (PRKD1, Homo sapiens, UniProt Q15139)	100%
Peripheral plasma membrane protein CASK (CASK, Homo sapiens, UniProt O14936)	76%
Tyrosine-protein kinase Lck (LCK, Homo sapiens, UniProt P06239)	83%

Some of these lines once more (sample 4):
target	remaining binding
Tyrosine-protein kinase BTK (BTK, Homo sapiens, UniProt Q06187)	82%
Calcium/calmodulin-dependent protein kinase kinase 1 (CAMKK1, Homo sapiens, UniProt Q8N5S9)	100%
G protein-coupled receptor kinase 3 (GRK3, Homo sapiens, UniProt P35626)	69%
